Measurements of several laboratories.
Each numbered part is a random draw from the data of one study; scales do not carry over between parts.

Series 1 — method: RNA Bind-n-Seq; form: RNA; matrix: in vitro; tested at: 365 nM; baseline: no-protein control; direction: higher = stronger binding; endpoint: RBNS enrichment (R)
Target: RNA binding protein fox-1 homolog 2, RRM domain, GST-SBP tag (RBFOX2, Homo sapiens, UniProt O43251-10, residues 100-194)
Setting: natural RNA segment, single round, ends assumed
Residues (chain): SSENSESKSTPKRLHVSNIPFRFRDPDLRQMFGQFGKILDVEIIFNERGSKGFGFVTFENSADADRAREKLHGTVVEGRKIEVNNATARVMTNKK
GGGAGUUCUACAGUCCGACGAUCAUUUUGUAGGACUUUUAAUUGUAAUGAUAGAGAAAAAAACAAGGAAAACUAUUUAAUGAAAGCACGAUAUUUAUCUUUGGUAAAUGACUUUAGAGCAGUUAAAGACAUUGUGGAAUUCUCGGGUGCCAA: 7.4
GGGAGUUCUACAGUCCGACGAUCAAAGUUAGAGUGCUGUAGUUAUGAAGUCAUACAUUUUUGAUAAAAUACCUGUGGAAAACCAGGGAUCCUCUCCUGUUUCUCUCUCUUGCCUCCCCCUUUCCCUCCAUUCCUGGAAUUCUCGGGUGCCAA: 0.675
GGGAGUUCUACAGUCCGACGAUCUAUCUAUAUCCAUAUGGAUGGAUAGGUAGGUAGAUCUUCAUAGAUUUUUUUUUCUUUUGUUAGAGGAGAGCUUGAUGUGAUUAUCUUCAAACCCACCAAACCAACAGGAUUGGAAUUCUCGGGUGCCAA: 0.329
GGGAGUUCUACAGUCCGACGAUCGAAGGCAGCUUCCUAUAUGCAGCGUGUGCUUUCUUAUUCUUAUUUUUAAUAUAUGACAGUUAUUUGAGAAGCCAUUUCUACUUUGAAGUCAUUAUCGAUGAAAGUGAUGUUGGAAUUCUCGGGUGCCAA: 0.459
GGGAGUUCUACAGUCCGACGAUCUGUGGAUGGCUUGAAGACUACUGAUGCUUUCCUCUGAAUUGUUCUUUGCACUGAAGGAGGACUUGGACUGACCUCCGACUUACAUAGUUUGUUAAGAGCUGUCUUUAGCAUGGAAUUCUCGGGUGCCAA: 1.3
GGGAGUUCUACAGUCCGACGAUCUAUGGGCUGCCAUCUCAGGCUGUCUUGAGGACCUGGGCUCCCUCUGCUACUCCCAGGAAAUGGGCUCCUGACACAGCAGUCUGCCACCACAGCCCCAGGAGGGUGUCAACUGGAAUUCUCGGGUGCCAA: 0.546
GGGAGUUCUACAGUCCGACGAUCUGUUGUCCUCCCCUCUAGUCCUUUGUUCCCUUUCUGAGCAUGUGGCCCCUCCCCCGGCUGUGAGGGGCAGCCGCCUUCCUAGGAAAGUGUAAUGCAGGAUCAAGACCACCUGGAAUUCUCGGGUGCCAA: 0.745
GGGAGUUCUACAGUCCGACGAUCCAUCAACUUCUUGGUGAAUUUGACAGGCAAGAAGAUGACAUUCACUUAGUGACAUUAUGUGUGACAGAAUUAAAUGACCGGGAAGAAAACGAAAACCACUUUCCAGUAAUUGGAAUUCUCGGGUGCCAA: 0.297
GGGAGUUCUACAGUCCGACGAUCCCUGCCCAUGCUGGGAGCCCACGCUCACCCCCUCACCCCUCCAAGCUCACUCCCCAACCCCCAACUCCGUGUGGUAAGCAACAUGGCUUUGAUGAUAAACGACUUUACUCUGGAAUUCUCGGGUGCCAA: 0.484
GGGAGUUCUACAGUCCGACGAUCAAGGAGGAAAGAGAUAAAGGUUAAAGUCCCAGAUCUGUGCCCUCCAGUAGGUUGGGCUGCUCAUUUGCCUUCGGAUGACAUUAUGUAAAUAAACGAAUGUCACACCCACAUGGAAUUCUCGGGUGCCAA: 0.282
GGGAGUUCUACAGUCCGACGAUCAAUGAAGGAUGUUUCCCGUAGGUUUUGUGCAGUCCAGUUGCCCUAAAGGACCAACCUGCCUUACGUAUCAGUUUAGUUCCUGAAAUCAGUGGAACUAUUCAAGGGACGGAUGGAAUUCUCGGGUGCCAA: 0.341
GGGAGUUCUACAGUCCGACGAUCUUGCUUUCAAAAUACAAGCACAGCAGUCCUUGAAUGGCUGUUGACCCAGGGCACCUAGCUGUCCCUGCUGGUCCUGGGGCUGCCAGAAUUCCCUUGGGCGCCAAGCAACCUGGAAUUCUCGGGUGCCAA: 0.313

Series 2 — method: protein binding microarray; form: double-stranded DNA, one strand shown; matrix: in vitro; tested at: not given; baseline: not given; direction: higher = stronger binding; endpoint: E-score
Target: Histone acetyltransferase KAT6A, winged helix 2, GST fusion (KAT6A, Homo sapiens, UniProt Q92794, residues 85-181)
Setting: 8-mer, flanks averaged, mean of 2 arrays, mostly near background
Target sequence (chain): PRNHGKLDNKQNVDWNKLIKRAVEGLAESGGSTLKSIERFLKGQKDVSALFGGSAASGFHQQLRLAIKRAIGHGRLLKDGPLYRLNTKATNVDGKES
GCAAGGGA: 0.0188
ACATCATC: -0.0378
ACGCGACT: -0.15
CTTTAGAA: 0.0482
AAAGGCGC: 0.0343
AAGCGGGA: 0.208
CTTCAAAC: 0.0805
GGGTGGTA: -0.0623
CAGCCGGA: 0.198
CCACCAGG: 0.044
GAATGCGC: 0.104
AAAATATC: 0.167
GGTCCCTA: -0.137
CCAGCAAC: -0.0187
CGGCCCCG: 0.145
ATCGCAGA: -0.0274
AGCTGAGG: -0.0657
CTAAAGCC: -0.0746
GACTAGGC: 0.0025
TATGTTAA: 0.0584

Series 3 — method: RNA Bind-n-Seq; form: RNA; matrix: in vitro; tested at: 200 nM; setting: whole 134-nt RNA, ends assumed; added: 150 mM KCl; baseline: input library; direction: higher = stronger binding; endpoint: log2 enrichment
Target: Fragile X messenger ribonucleoprotein 1, C-terminal low-complexity region (Fmr1, Mus musculus, UniProt P35922)
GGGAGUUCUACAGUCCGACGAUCUGGGAGGUGGAUUUUGUUUAUUUUUUUAGCUCAUUUCCAGGGGUGGGAAUUUUUUUUUAAUAUGUAUCAUGAAUAAAGUUGUUUUUGAAAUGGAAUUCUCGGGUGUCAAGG: -0.00297
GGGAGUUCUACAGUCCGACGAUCCUCAAGUCCUGUGCUACACAUCGUAUGUACCGAAUCGGAAAAAGGUUUGGUGGAAAGUAUUAUGUUACGCCGUUCGGAUCUGCACUUCCAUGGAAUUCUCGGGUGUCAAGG: -0.56
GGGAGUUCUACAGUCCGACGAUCCAAGUCCUGUGCUACACAUCGUAUGUACCGAAUCGGUUUUUUUGGAAAAAGGUGGAAAGUAUUAUGUUACGCCGUUCGGAUCUGCACUUCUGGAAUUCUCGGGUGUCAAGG: -0.696
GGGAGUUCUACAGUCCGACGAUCCAAGUCCUGUGCUACACAUCGUAUGUACCGAAUCGGCCCGGGGCCCGGCCCGGGGAAAGUAUUAUGUUACGCCGUUCGGAUCUGCACUUCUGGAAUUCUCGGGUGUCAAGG: -0.389
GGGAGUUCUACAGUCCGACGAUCAAGUCCUGUGCUACACAUCGUAUGUACCGAAUCAAAUUUAAAUUUAAAUUUUUAAAAAAGUAUUAUGUUACGCCGUUCGGAUCUGCACUUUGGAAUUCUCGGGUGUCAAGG: -1.13
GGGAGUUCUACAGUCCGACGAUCAGUCCUGUGCUACACAUCGUAUGUACCGAAUCGGGUUUUGGGGUUUUGGGGUUUUGGAAAGUAUUAUGUUACGCCGUUCGGAUCUGCACUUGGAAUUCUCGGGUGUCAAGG: 0.0886
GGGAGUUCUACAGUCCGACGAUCUUCGAAGAGGUUGUGUACCAGGCCAUGGGUGAGUGCCCGGGCCACCGAGGCCACGUGCCUCCACGAGGGGCUGCCUAUGCCCCACCCUGGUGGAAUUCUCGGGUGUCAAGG: -0.591
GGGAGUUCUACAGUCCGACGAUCACCAUGCAGGUGGGCAUCUUUGGGAAGUGGGGCAAGGGGGGGAUAGGGAGGGGGGUAACACUUUGGGAACGGGUGGUCCCAGGUCGUUUCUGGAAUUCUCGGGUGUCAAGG: 0.68
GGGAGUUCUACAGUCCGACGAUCAAGUCCUGUGCUACACAUCGUAUGUACCGAAUCGGUUUUGGUUUUGGGGUUUUGGGGAAAGUAUUAUGUUACGCCGUUCGGAUCUGCACUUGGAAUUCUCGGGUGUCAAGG: -0.196
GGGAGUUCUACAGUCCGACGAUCCUGUGCUACACAUCGUAUGUACCGAAUCGGUUUUUUUGGGGUUUUUUUGGGUUUUUUUGGGGAAAGUAUUAUGUUACGCCGUUCGGAUCUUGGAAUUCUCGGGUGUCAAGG: -0.241

Series 4 — method: protein-binding microarray; form: double-stranded DNA, one strand shown; matrix: in vitro; tested at: not given; direction: higher = stronger binding; endpoint: E-score
Target: Transcriptional repressor CTCF (CTCF, Homo sapiens, UniProt P49711, residues 1-727, full length assumed)
Sequence of UniProt P49711 (whole entry, looked up): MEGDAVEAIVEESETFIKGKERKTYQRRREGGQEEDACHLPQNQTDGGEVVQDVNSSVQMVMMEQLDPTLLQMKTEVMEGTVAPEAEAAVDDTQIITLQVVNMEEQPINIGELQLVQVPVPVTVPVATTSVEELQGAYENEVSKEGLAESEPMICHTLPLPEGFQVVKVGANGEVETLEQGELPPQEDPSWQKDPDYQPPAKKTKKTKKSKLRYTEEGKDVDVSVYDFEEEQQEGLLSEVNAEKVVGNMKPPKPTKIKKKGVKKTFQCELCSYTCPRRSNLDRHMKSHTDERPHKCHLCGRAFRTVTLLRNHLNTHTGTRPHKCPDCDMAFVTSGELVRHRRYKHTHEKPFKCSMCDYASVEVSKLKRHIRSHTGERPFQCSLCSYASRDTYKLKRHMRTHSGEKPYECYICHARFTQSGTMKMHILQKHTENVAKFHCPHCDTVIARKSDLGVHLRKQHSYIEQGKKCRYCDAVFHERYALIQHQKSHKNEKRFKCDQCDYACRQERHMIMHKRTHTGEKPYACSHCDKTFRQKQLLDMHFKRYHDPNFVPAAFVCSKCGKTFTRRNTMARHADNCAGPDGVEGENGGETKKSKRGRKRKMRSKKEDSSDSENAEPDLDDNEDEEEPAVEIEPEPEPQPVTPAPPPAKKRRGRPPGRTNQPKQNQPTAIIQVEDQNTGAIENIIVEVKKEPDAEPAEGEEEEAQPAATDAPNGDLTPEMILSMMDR
Setting: k-mer, scored over probes, only values ≥0.25
ATGTTATG: 0.27
ATAGTATC: 0.291
CGCGCGCG: 0.32
ACAAAATA: 0.314
TAAATAAA: 0.355
CATATATC: 0.261
TACAAAAA: 0.336
AGTGCGCC: 0.291
AATACAAA: 0.397
AATAGATA: 0.261
ATTATACG: 0.307
GAATGCGC: 0.286
CACTAGGG: 0.376
GGGCGCCA: 0.411
AATTATTA: 0.339
ATAAGTAT: 0.294
CTGCGCCA: 0.327
ATGGTAAT: 0.251
AATAATAA: 0.33
ATAATTGA: 0.28
GCGCGTTA: 0.331

Repeated from above (series 3):
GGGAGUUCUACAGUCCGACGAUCUGGGAGGUGGAUUUUGUUUAUUUUUUUAGCUCAUUUCCAGGGGUGGGAAUUUUUUUUUAAUAUGUAUCAUGAAUAAAGUUGUUUUUGAAAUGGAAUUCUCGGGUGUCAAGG: -0.00297
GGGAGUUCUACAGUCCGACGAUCCUCAAGUCCUGUGCUACACAUCGUAUGUACCGAAUCGGAAAAAGGUUUGGUGGAAAGUAUUAUGUUACGCCGUUCGGAUCUGCACUUCCAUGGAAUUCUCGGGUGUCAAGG: -0.56
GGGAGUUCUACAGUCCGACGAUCCAAGUCCUGUGCUACACAUCGUAUGUACCGAAUCGGUUUUUUUGGAAAAAGGUGGAAAGUAUUAUGUUACGCCGUUCGGAUCUGCACUUCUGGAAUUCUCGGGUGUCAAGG: -0.696
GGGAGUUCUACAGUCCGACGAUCCAAGUCCUGUGCUACACAUCGUAUGUACCGAAUCGGCCCGGGGCCCGGCCCGGGGAAAGUAUUAUGUUACGCCGUUCGGAUCUGCACUUCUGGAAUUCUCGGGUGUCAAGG: -0.389
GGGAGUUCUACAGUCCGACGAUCAAGUCCUGUGCUACACAUCGUAUGUACCGAAUCAAAUUUAAAUUUAAAUUUUUAAAAAAGUAUUAUGUUACGCCGUUCGGAUCUGCACUUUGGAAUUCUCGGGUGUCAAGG: -1.13
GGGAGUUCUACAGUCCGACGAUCAGUCCUGUGCUACACAUCGUAUGUACCGAAUCGGGUUUUGGGGUUUUGGGGUUUUGGAAAGUAUUAUGUUACGCCGUUCGGAUCUGCACUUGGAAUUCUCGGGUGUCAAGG: 0.0886
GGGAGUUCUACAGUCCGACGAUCUUCGAAGAGGUUGUGUACCAGGCCAUGGGUGAGUGCCCGGGCCACCGAGGCCACGUGCCUCCACGAGGGGCUGCCUAUGCCCCACCCUGGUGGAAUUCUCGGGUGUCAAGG: -0.591
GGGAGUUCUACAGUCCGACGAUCACCAUGCAGGUGGGCAUCUUUGGGAAGUGGGGCAAGGGGGGGAUAGGGAGGGGGGUAACACUUUGGGAACGGGUGGUCCCAGGUCGUUUCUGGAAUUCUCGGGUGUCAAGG: 0.68
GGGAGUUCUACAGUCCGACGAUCAAGUCCUGUGCUACACAUCGUAUGUACCGAAUCGGUUUUGGUUUUGGGGUUUUGGGGAAAGUAUUAUGUUACGCCGUUCGGAUCUGCACUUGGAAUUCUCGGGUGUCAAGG: -0.196
